Experimental data collected from several papers.
A part holds a random share of what one study measured. Substitutions count along the parent as printed.

Study 1
Target: CCNF, cyclin fold, Cln2 fusion (human)
Method: yeast growth competition, sequencing
Medium: yeast
Setting: strong parent motif
Reference: not given
Reading: higher = stronger binding
Starting sequence: WEE1 docking peptide (human); HKTFRKLRLFDTP
For `P13Y`, “normalised enrichment score” read 1.93.
Under “normalised enrichment score”, `F10T` is recorded as 1.38.
`F4S` — result for “normalised enrichment score”: 2.69.
`L9W` — result for “normalised enrichment score”: 2.54.
For `K2H`, “normalised enrichment score” read 1.92.
`R8P`: “normalised enrichment score” 0.568.
For `T12C`, “normalised enrichment score” read 1.72.
`L9E`: “normalised enrichment score” 1.24.
For `L9R`, “normalised enrichment score” read 0.611.
Under “normalised enrichment score”, `L9G` is recorded as 1.61.
For `P13I`, “normalised enrichment score” read 3.09.
`K6C`: “normalised enrichment score” 2.69.

Study 2
Target: ABI1, truncated, D143A, DHFR fusion (Arabidopsis thaliana)
Method: DHFR PCA, deep sequencing
Medium: yeast
Setting: methotrexate growth selection, single substitutions
Together with: (+)-ABA 0.0091 µM
Reference: wild-type fitted maximum
Reading: higher = stronger binding
Starting sequence: PYL1, truncated, DHFR fusion (Arabidopsis thaliana); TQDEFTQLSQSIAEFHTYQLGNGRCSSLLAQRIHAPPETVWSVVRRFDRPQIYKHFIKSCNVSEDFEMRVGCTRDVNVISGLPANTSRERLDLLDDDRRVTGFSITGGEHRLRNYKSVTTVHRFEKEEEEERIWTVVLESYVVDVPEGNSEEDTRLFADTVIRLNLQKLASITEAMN
`G148V` — result for “relative binding score”: 1%.
For `I133Q`, “relative binding score” read 61.9%.
`L28V` — result for “relative binding score”: 50.8%.
`D65T` — result for “relative binding score”: 3.49%.
`N149S`: “relative binding score” 58.2%.
Under “relative binding score”, `G107I` is recorded as -7.05%.
Under “relative binding score”, `Q19M` is recorded as 4.8%.
Under “relative binding score”, `S27G` is recorded as 52.6%.
For `G148H`, “relative binding score” read -0.74%.
`K54R` — result for “relative binding score”: 20.9%.

Study 3
Target: Histone acetyltransferase KAT6A, both winged helices, GST fusion (KAT6A, Homo sapiens, UniProt Q92794, residues 1-181)
Method: protein binding microarray
Form: double-stranded DNA, one strand shown
Medium: in vitro
Tested at: not given
Setting: 8-mer, flanks averaged, mean of 2 arrays, mostly near background
Reference: not given
Reading: higher = stronger binding
Construct (chain): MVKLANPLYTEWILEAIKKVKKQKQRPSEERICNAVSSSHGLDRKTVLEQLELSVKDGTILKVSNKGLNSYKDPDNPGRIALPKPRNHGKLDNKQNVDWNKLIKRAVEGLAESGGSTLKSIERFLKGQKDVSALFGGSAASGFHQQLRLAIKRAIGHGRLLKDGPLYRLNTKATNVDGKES
`GAGATCGA` gave an E-score of 0.00058.
For `GAAAGGGC`, the E-score was -0.112.
For `AGAAGGAT`, the E-score was -0.193.
`CTAGTCGC` has an E-score of 0.073.
`CGAAGCCA` has an E-score of -0.132.
With `CAGGGGAA` the E-score was -0.226.
For `ACCTGCAT`, the E-score was -0.104.
With `GCTGGCGA` the E-score was 0.00781.
For `ATTTGTCC`, the E-score was -0.0491.

Single results of other studies
`PhoQ, residues 284 288 289 292 302 303 TSTLRA` has a fold induction of 38.7 (PhoP, residues 12 14 15 18 19 GHCSL (Escherichia coli, UniProt P23836); Sort-seq, item: YFP reporter; E. coli; PhoQ-PhoP variant library, together with: 10 µM Mg2+; reference: high Mg2+ state, higher = stronger signaling).
